Published values from different studies.
Each numbered part is a random draw from the data of one study; scales do not carry over between parts.
Chain of UniProt Q8TDR2 (whole entry, looked up): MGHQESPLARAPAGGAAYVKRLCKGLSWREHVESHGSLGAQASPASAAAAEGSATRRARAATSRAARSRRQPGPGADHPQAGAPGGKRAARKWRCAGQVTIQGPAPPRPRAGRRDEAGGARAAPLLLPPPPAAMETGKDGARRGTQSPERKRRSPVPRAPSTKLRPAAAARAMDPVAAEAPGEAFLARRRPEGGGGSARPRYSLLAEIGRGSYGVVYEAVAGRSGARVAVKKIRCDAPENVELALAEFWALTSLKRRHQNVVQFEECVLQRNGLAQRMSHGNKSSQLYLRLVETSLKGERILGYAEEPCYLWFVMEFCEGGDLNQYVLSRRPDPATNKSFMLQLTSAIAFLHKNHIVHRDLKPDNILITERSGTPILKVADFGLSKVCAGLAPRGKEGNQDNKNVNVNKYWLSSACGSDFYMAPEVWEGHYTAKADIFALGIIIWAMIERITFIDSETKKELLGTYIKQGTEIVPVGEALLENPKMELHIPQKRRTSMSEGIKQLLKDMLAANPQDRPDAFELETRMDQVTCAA
Chain of UniProt Q00537 (whole entry, looked up): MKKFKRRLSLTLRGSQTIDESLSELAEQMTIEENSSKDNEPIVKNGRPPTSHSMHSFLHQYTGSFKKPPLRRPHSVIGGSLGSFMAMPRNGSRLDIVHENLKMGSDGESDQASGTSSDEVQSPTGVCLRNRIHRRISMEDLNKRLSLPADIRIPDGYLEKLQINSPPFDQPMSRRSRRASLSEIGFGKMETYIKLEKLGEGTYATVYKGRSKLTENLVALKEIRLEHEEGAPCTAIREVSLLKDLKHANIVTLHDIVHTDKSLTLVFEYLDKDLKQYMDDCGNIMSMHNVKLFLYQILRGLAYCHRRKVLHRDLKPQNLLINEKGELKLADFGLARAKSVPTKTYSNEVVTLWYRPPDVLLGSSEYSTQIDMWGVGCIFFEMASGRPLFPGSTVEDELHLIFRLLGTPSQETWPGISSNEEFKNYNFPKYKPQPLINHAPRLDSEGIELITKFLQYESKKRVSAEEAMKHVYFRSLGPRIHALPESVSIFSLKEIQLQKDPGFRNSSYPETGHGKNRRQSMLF
Chain of UniProt P49841 (whole entry, looked up): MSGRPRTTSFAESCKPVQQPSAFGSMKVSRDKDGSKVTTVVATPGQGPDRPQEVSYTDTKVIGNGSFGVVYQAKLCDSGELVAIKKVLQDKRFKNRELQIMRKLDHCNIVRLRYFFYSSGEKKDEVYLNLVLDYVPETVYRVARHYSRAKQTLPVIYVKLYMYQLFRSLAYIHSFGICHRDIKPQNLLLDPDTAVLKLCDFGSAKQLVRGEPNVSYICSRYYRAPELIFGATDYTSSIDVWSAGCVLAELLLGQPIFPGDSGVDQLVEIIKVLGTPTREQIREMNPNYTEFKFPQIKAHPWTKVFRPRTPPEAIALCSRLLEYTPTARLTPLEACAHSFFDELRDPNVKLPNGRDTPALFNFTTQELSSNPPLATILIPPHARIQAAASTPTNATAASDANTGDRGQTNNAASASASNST
Chain of UniProt Q52WX2 (whole entry, looked up): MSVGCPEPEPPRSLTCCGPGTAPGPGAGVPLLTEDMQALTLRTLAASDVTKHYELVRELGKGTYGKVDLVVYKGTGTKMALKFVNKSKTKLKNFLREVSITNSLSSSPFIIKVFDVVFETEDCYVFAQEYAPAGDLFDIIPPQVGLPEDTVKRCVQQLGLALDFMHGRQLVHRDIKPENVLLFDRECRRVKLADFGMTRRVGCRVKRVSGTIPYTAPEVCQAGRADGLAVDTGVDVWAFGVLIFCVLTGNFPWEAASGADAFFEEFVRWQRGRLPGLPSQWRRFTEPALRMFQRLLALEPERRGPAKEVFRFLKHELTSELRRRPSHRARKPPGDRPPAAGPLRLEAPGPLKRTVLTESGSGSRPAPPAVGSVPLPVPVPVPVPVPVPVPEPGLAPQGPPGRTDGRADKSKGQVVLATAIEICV
Chain of UniProt Q8IY84 (whole entry, looked up): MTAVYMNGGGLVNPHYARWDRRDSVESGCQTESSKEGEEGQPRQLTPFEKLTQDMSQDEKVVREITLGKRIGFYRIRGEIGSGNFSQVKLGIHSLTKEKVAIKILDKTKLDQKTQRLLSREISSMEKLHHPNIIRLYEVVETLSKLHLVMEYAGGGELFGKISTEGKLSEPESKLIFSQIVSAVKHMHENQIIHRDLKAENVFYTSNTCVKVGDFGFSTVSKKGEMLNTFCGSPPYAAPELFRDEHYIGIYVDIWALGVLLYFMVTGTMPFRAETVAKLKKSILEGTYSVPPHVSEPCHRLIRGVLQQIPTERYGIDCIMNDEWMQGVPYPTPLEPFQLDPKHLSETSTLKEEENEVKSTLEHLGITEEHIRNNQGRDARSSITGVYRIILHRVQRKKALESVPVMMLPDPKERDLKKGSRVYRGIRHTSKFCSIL
Chain of UniProt P54646 (whole entry, looked up): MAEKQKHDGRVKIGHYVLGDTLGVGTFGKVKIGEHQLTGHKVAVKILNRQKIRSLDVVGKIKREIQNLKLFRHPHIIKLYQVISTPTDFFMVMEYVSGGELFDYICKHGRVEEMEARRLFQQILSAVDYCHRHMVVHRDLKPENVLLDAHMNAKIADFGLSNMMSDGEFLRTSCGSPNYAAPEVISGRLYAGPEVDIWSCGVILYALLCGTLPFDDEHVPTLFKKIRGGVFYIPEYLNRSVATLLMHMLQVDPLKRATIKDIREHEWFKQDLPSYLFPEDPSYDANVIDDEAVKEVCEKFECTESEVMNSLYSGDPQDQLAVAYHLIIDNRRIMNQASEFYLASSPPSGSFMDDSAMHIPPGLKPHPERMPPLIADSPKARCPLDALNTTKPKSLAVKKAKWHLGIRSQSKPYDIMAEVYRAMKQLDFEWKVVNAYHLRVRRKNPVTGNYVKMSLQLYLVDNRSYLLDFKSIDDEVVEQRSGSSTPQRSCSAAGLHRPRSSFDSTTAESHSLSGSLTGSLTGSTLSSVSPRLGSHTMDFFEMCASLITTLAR

Series 1
Organism: Arabidopsis thaliana
Observed: root length
Strain: Col-0
Sample: seedlings
Tested at: 3.125 µg/mL
Quantity: inhibition
CCCN1C(=O)C(O)(C(=O)O)Oc2cc(F)ccc21 (centres unmarked): 9.42%
O=C(O)C1(O)Oc2ccccc2N(Cc2ccccc2)C1=O (centres unmarked): 6.2%
CC(C)(C)c1ccc(Oc2ccc3c(c2)OC(O)(C(=O)O)C(=O)N3Cc2ccccc2)cc1 (centres unmarked): 7.74%
CCN1C(=O)C(O)(C(=O)O)Oc2cc(F)ccc21 (centres unmarked): 10.8%
O=C(O)C1Oc2cc(F)ccc2N(Cc2ccccc2)C1=O (centres unmarked): 5.21%
O=C(O)C1(O)Oc2cc(F)ccc2N(Cc2ccccc2)C1=O (centres unmarked): 41.1%
COc1ccc2c(c1)OC(O)(C(=O)O)C(=O)N2Cc1ccccc1 (centres unmarked): 6.89%

Series 2
SMILES: C[C@@H]1CN(c2ccc(-c3cc(C(=O)NCCOCCOCCOCCOCCOCCOCCNC(=O)/C=C/c4[nH]cc(C(=O)N[C@@H](CC(N)=O)c5ccc(F)c(Cl)c5)c4-c4ccc(Cl)cc4F)ccc3F)cc2NC(=O)c2ccc(F)cc2C(F)(F)F)C[C@H](C)N1C
Observed: thermal unfolding
Method: differential scanning fluorimetry
Tested at: 5.5 µM
Reading: higher = more unfolded
Quantity: SYPRO Orange fluorescence
DCAF1: DDB1- and CUL4-associated factor 1 (DCAF1, Homo sapiens, UniProt Q9Y4B6)
Chain of UniProt Q9Y4B6 (whole entry, looked up): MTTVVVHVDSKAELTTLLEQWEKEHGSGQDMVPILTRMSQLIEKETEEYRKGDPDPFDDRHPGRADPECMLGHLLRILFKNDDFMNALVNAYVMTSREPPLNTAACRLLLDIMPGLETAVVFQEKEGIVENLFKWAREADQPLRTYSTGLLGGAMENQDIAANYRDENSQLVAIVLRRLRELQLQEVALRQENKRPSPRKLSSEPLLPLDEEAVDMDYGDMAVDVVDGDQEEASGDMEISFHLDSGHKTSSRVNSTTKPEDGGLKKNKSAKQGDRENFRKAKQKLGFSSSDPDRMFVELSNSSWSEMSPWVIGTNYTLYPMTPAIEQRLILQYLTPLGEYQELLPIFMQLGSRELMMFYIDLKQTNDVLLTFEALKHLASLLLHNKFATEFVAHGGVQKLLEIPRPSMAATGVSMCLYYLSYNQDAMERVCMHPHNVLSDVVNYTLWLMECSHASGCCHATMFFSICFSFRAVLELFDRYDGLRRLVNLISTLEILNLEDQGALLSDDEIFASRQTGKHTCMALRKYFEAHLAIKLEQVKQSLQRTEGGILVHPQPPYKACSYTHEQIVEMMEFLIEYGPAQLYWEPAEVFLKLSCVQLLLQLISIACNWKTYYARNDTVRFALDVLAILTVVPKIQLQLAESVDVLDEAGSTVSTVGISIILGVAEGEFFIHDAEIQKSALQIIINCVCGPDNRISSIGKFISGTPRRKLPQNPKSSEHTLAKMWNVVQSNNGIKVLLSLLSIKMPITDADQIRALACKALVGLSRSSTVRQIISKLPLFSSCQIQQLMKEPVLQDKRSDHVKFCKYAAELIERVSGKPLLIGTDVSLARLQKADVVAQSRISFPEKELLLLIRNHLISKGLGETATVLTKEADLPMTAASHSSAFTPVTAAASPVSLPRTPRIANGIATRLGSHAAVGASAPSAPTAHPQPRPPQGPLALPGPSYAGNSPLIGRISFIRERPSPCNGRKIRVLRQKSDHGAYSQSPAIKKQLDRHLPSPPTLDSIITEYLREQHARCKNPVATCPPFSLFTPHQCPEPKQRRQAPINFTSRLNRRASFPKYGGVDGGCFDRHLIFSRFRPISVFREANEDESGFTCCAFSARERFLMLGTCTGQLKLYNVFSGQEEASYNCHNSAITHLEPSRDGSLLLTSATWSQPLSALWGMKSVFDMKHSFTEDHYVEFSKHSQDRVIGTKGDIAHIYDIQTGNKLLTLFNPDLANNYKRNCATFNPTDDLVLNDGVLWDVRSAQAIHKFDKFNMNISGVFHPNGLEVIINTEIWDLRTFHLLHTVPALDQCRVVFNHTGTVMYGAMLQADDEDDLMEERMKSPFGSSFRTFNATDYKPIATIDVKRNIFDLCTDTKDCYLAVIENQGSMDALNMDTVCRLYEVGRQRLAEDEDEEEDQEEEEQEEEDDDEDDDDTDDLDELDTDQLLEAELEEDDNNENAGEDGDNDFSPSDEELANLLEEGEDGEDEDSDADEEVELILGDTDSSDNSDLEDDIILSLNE
WDR5: WD repeat-containing protein 5 (WDR5, Homo sapiens, UniProt P61964)
DCAF1; 50 °C: 18100 a.u.
WDR5; 63.41 °C: 15500 a.u.
WDR5; 76.81 °C: 56200 a.u.
DCAF1; 81.81 °C: 38700 a.u.
WDR5; 67.41 °C: 20200 a.u.
DCAF1; 76.21 °C: 42800 a.u.
DCAF1; 70.61 °C: 47600 a.u.

Series 3
Structure (SMILES): Cc1ccc(O)c(C)c1-c1cnc2[nH]c(-c3cnc(N4CCC5(CC4)CC(N4CCN(c6ccc(N[C@H]7CCC(=O)NC7=O)cc6F)CC4)CO5)nc3)cc2c1C#N (single isomer, unassigned)
Sample: plasma
Route: oral
Quantity: Cmax
male beagle dog; 5 mg/kg: 583 ng/mL
male cynomolgus monkey; 10 mg/kg: 144 ng/mL
female CD-1 mouse; 40 mg/kg: 1180 ng/mL
male Sprague-Dawley rat; 20 mg/kg: 2270 ng/mL

Series 4
Structure (SMILES): CCC1(c2cccc(-c3cn(C)nc3C)c2)C2=C(Nc3n[nH]cc31)C(F)C(C)(C)CC2=O (single isomer, unassigned)
Tested at: 1 µM
Quantity: remaining binding
Cyclin-dependent kinase 13 (CDK13, Homo sapiens, UniProt Q14004); binding, competition with immobilised ligand: 75%
Tyrosine-protein kinase ABL1, phosphorylated (ABL1, Homo sapiens, UniProt P00519, M351T); binding, competition with immobilised ligand: 100%
Cyclin-dependent kinase 17 (CDK17, Homo sapiens, UniProt Q00537); binding, competition with immobilised ligand: 100%
Serine/threonine-protein kinase NIM1 (NIM1K, Homo sapiens, UniProt Q8IY84); binding, competition with immobilised ligand: 95%
Serine/threonine-protein kinase 35 (STK35, Homo sapiens, UniProt Q8TDR2); binding, competition with immobilised ligand: 100%
5'-AMP-activated protein kinase catalytic subunit alpha-2 (PRKAA2, Homo sapiens, UniProt P54646); kinase binding, KINOMEscan; reference: DMSO control: 100%
Rho-associated protein kinase 2 (ROCK2, Homo sapiens, UniProt O75116); kinase binding, KINOMEscan; reference: DMSO control: 76%
Proto-oncogene tyrosine-protein kinase Src (SRC, Homo sapiens, UniProt P12931); binding, competition with immobilised ligand: 100%
Phosphatidylinositol 4,5-bisphosphate 3-kinase catalytic subunit alpha isoform (PIK3CA, Homo sapiens, UniProt P42336, E542K); kinase binding, KINOMEscan; reference: DMSO control: 57%
Phosphatidylinositol 4,5-bisphosphate 3-kinase catalytic subunit gamma isoform (PIK3CG, Homo sapiens, UniProt P48736); binding, competition with immobilised ligand: 100%
Bone morphogenetic protein receptor type-1A (BMPR1A, Homo sapiens, UniProt P36894); binding, competition with immobilised ligand: 100%
Hepatocyte growth factor receptor (MET, Homo sapiens, UniProt P08581); kinase binding, KINOMEscan; reference: DMSO control: 88%
Glycogen synthase kinase-3 beta (GSK3B, Homo sapiens, UniProt P49841); binding, competition with immobilised ligand: 1.1%
Serine/threonine-protein kinase SBK1 (SBK1, Homo sapiens, UniProt Q52WX2); binding, competition with immobilised ligand: 100%

For quick reference, copied from above (series 4):
Cyclin-dependent kinase 17 (CDK17, Homo sapiens, UniProt Q00537); binding, competition with immobilised ligand: 100%
Serine/threonine-protein kinase NIM1 (NIM1K, Homo sapiens, UniProt Q8IY84); binding, competition with immobilised ligand: 95%
Serine/threonine-protein kinase 35 (STK35, Homo sapiens, UniProt Q8TDR2); binding, competition with immobilised ligand: 100%
5'-AMP-activated protein kinase catalytic subunit alpha-2 (PRKAA2, Homo sapiens, UniProt P54646); kinase binding, KINOMEscan; reference: DMSO control: 100%
Rho-associated protein kinase 2 (ROCK2, Homo sapiens, UniProt O75116); kinase binding, KINOMEscan; reference: DMSO control: 76%
